Experimental data from different studies.
Parts stem from different laboratories: compare values within a part only.

Set 1
Target: RING finger protein unkempt homolog, zinc fingers 1-6, GST-SBP tag (UNK, Homo sapiens, UniProt Q9C0B0, residues 30-357)
Chain of UniProt Q9C0B0 (30-357, looked up): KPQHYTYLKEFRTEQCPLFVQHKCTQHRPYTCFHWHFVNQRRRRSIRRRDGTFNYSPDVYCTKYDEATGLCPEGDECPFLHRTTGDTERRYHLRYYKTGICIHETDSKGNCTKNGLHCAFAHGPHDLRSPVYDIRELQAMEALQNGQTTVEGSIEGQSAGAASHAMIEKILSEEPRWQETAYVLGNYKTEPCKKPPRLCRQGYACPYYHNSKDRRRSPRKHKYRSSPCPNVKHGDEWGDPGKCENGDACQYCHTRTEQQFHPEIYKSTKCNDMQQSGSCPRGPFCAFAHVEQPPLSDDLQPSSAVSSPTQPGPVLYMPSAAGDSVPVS
Method: RNA Bind-n-Seq
Form: RNA
Medium: in vitro
Tested at: not given
Setting: RNA with constant flanks, human-mouse chimeric sites, ends assumed
Reference: input RNA pool
Reading: higher = stronger binding
Endpoint: bound/input enrichment
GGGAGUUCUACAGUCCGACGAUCCUUUUUGAAUCAUUCAAGAGUUUUGAAGGUCUCUUUUAUUUUCUGGGGUCCAUUGUUAACUUUAGUCAGGACCCAGAUGUGCACUUUAAAUAUAUUCAGGCGGCUUGCAAGACUGGGCAACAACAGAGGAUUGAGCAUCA: 0.741 ratio
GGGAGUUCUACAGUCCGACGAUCGGAAGUACAAUGAUGGAGAUUGAUGGUGACAAAGGCAAACAAGGCGGGCCCACCUACUACAUAGACACCAAUGCCCUCCGCGUGCCCAGGGAGAAUAUGGAGGCCAUCUCACCACUCAAGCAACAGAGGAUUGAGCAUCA: 0.239 ratio
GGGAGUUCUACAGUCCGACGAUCCAGCUGCAGACAGAAAAGGAUGAGAAGGAACUUUAUAAGGUACAUUUGAAGAAUACAGAAAUAGAAAAUACGAAGCUUGUGUCAGAGGUCCAGACUUUAAAGAAUUUAGAUGGAAACAAACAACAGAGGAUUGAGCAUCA: 5.47 ratio
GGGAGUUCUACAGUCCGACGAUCCACGUGUCUGCAGUACUUGAUGUGGACUACUCUCCCACUGGGAAGGAGUUUGUGUCUGCUAGUUUCGAUAAGUCUAUUAGAAUCUUUCCUGUGGACAAGAGCCGAAGCAGGGAAGUGUAUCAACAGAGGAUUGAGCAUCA: 1.86 ratio
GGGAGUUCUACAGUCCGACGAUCGCUGAAAAUGAAGAAGAGGCAGCUGAUGUCUGGUACAACUUGGGACACAUAGCUGUGGGAAUCGGAGAUACAAACUUGGCCCAUCAGUGCUUCAGGCUGGCCCUGGUCCACAACAACCACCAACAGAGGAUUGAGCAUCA: 0.124 ratio
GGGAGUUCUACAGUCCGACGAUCGAGCCCAGCCGGCAGUUUGUAAAGGACUCAAUUCGGCUGGUUAAAAGAUGCACCAAACCCGACAGAAAAGAAUUCCAGAAGAUUGCCAUGGCUACAGCAAUAGGAUUUGCUAUAAUGGGACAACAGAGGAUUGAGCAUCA: 0.255 ratio
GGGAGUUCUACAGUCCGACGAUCAACAGAUUUCUCAAGCACAUUCCAAGCAAUGCUUGGGGGGUGAUCAUUGUUGCCCAUGUGCCUUCUGACUGAGCUUUAAUGCUGUUCCAUGUUACAUCUUUCCUUCACUCCAGAAUUGUUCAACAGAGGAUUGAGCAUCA: 0.154 ratio
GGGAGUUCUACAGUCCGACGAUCCUGAAAAACACAGAUAUCAAAGUUGUUGACUUUGGAAGUGCAACAUAUGAUGAUGAACAUCACAGUACUUUGGUGUCCACAAGGCACUACAGAGCUCCCGAGGUCAUUUUGGCUUUAGGUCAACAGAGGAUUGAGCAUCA: 0.34 ratio

Set 2
Target: TAR DNA-binding protein 43, full length, His tag (TARDBP, Homo sapiens, UniProt Q13148, residues 1-414)
Method: RNA Bind-n-Seq
Form: RNA
Medium: in vitro
Tested at: 20 nM
Setting: 6-mer, flanks averaged, single round
With: 150 mM KCl
Reference: input library
Reading: higher = stronger binding
Endpoint: 6-mer enrichment (R)
CCUGCC: 0.646
AUAAUU: 0.752
UUGUCC: 0.63
ACUAGU: 0.646
GCAACU: 0.688
ACACUA: 0.632
UAGUAA: 0.637
GAUACA: 0.675
GUGCCA: 0.905
AUAGUC: 0.583
CUUCAC: 0.562
CUGGCG: 1.44
GGGCCA: 2.28
AAGUCC: 0.602
CGCCAU: 0.656
CCCAUC: 0.593

Set 3
Target: Histone acetyltransferase KAT6A, winged helix 2, GST fusion (KAT6A, Homo sapiens, UniProt Q92794, residues 85-181)
Method: protein binding microarray
Form: double-stranded DNA, one strand shown
Medium: in vitro
Tested at: not given
Setting: 8-mer, flanks averaged, mean of 2 arrays, mostly near background
Reference: not given
Reading: higher = stronger binding
Endpoint: E-score
Residues (chain): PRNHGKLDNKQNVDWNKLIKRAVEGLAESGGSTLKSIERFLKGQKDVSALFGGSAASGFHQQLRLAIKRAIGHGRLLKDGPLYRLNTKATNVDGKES
CGGGAACA: 0.188
CTACTTAC: -0.224
ATGCATTA: -0.16
CGAGCCGA: 0.124
GGGACAAA: 0.0217
CACTGATA: -0.0591
CGCTGGTA: 0.00728
CGTAACAC: -0.0239
ACCCCCAG: -0.0343
GCAGACAC: 0.165
CCCATCTC: -0.0509
CATGTATA: -0.137
ACTAGTAC: -0.0833
AACGATTA: -0.203
ACTATCCT: -0.174
CGATTTTC: 0.159
CCTCTTAC: 0.0408
AATTCTTA: -0.0279
CTCTACCC: -0.0608
CCGACTAG: -0.119
TCAAGCCA: -0.0485
AGTTCCAC: -0.0749

Set 4
Target: RNA binding protein fox-1 homolog 2, RRM domain, GST-SBP tag (RBFOX2, Homo sapiens, UniProt O43251-10, residues 100-194)
Method: RNA Bind-n-Seq
Form: RNA
Medium: in vitro
Tested at: 365 nM
Setting: natural RNA segment, single round, ends assumed
Reference: no-protein control
Reading: higher = stronger binding
Endpoint: RBNS enrichment (R)
Residues (chain): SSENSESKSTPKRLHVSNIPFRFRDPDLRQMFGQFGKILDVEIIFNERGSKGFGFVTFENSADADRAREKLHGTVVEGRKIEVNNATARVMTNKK
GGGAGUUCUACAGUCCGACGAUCGUCUGACCUGGGCCUGAGAGCUGGAGAAGGUGCAGAUUCAAAGUGAGCGGCUCCUGAGGAGAGCCGCCAAGGCUGCUCGCCUUCUCCGUGGCUUCCGCAGCUACCGUCUGUGGAAUUCUCGGGUGCCAA: 0.71
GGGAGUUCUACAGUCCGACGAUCUUAAAGUUGAUUGUUCAGCUGGAGCCCAGAGAAUUUAAUUACUGUUUUUUUCUUUGUACCUGAUGUGAAUUCUAGCAACCUUUGUUAGGAAAAAGCACAGCCUCGAAUGGUGGAAUUCUCGGGUGCCAA: 0.593
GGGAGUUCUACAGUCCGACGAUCAGGAUCCUACCUAAGGGGCACAACUAGUAAGGGAGUAGAGCUGAGAUUGGCUCCAGAGUUCUUGUUUUCAGCCACCAUUUUAUGCUGCCUCUCCAGUGAUUUUUUUUCCCUGGAAUUCUCGGGUGCCAA: 0.33
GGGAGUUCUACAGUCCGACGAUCCCCUGCGUCUUCAUUUCCGUGUGUGUGCAACUGCUCCGCUCCAAGAACUGCACCGCUGUCUUGUGAGCAUGGCGUGAACAGGCUGUUUUGCUCCAGCCACUUUUCUUGUAUGGAAUUCUCGGGUGCCAA: 1.18
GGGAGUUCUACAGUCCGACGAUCCCAGCUUAGUCAGAAGAUGGUUCCAUGGAAGAAAAAGGCCAAGGAGUUUGAAGAUUUUUCUUCUAGACAUCUCAAAAUGUGGUACUCAUACCAUCCACAUCAGAAUCCCUUGGAAUUCUCGGGUGCCAA: 0.518
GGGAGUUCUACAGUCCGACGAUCUGUCUACCUCUGACUUCUGUGGUCCCUCUGUGUCUGCUCUCAUCCAUUCCUCUUACUGGGGCCUGGGGCUCUAGCCCAAGGCUCAGAGGAGCCAAUAAACCUGUAAAUGAUGGAAUUCUCGGGUGCCAA: 0.371
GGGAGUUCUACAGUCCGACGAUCGCUGGAAGAGGCUCAGCGUUUGUGCUUGACUGCUGACCACCAGUGGUGCCAGAAGGCCUCAUCCUACAUCCUGCUCUCCUGGAUUGUUAAGACUAUAAAGUACUACUGUAUGGAAUUCUCGGGUGCCAA: 0.406
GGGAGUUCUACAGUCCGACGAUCACAUCAUUAAAGAUCUAAAUACAAAGGAUAUACAGUCUUGAAUCUAAAAUAAUUUGCUAACUAACUAUUUUGAUUCUUCAGAGAGAACUACUAAUAAAAAUCUAAAAGGUUGGAAUUCUCGGGUGCCAA: 0.416

Set 5
Target: Interferon regulatory factor 7, full length, phosphomimetic (IRF7, Homo sapiens, UniProt Q92985, residues 1-503, S471D/S472D/S475D/S476D/S477D/S483D/S484D/S487D)
Chain of UniProt Q92985 (whole entry, unmodified, looked up): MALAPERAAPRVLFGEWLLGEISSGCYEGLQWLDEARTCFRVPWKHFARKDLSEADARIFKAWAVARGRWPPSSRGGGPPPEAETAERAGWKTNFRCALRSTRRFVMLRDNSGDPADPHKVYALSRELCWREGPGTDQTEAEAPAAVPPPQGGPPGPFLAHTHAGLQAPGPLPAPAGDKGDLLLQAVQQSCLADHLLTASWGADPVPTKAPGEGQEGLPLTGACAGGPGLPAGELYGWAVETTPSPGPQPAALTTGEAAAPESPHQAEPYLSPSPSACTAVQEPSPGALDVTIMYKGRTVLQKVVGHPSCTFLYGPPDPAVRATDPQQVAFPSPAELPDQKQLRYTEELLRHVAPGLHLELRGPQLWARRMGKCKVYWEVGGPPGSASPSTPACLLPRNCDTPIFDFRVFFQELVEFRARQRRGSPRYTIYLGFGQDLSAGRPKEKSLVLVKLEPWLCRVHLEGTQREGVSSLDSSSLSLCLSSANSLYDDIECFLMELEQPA
Method: protein-binding microarray
Form: double-stranded DNA, one strand shown
Medium: in vitro
Tested at: 2200 nM top
Setting: 60-bp whole probe
With: salmon DNA 0.4 mg/ml
Reference: random background probes
Reading: higher = stronger binding
Endpoint: fitted relative affinity
Shared flanks, not repeated: GCCTAGCAC … GTCTTGATTCGCTTGACGCTGCTG
TTGGATATCAGTTTCGATTAGTGCTAG: 5.98 z-score
TTAGGTATCGACTTTCGGTTTGTGCTA: 13.1 z-score
GGCGGTATCGACTTTCGGGACGTGCTA: 2.38 z-score
GACGGTATCAGTTTCGGGACGTGCTAG: 3.97 z-score
GACGCTTTCGGGTATCGAGACGTGCTA: 6.38 z-score
TCACATTGCTGCCCTCAGACTGTGCTA: 1.7 z-score
TTAGGACGGGGTATCGGTTAGTGCTAG: -0.207 z-score
GTCGGACTGGGTTTCGGGACGTGCTAG: 1.44 z-score
TTAGGTTTTGGACTGGGTTAGTGCTAG: 0.444 z-score
TTAGGACTGGACTATAGGTTAGTGCTA: -0.78 z-score
TTAGAAATGAGTTTCGATTAGTGCTAG: 3.2 z-score
TCAGTTTTCAGTTTCACACTGTGCTAG: 6.46 z-score
GACAGTTTCGGGTTTCGGGACGTGCTA: 12.1 z-score
TTAGGTTTGCTTTTCCTTTAGTGCTAG: 2.56 z-score
TTAGGACTGCTCATCCTTTAGTGCTAG: 0.496 z-score
GATGGTATCGGGACTGGGGACGTGCTA: -0.364 z-score
TTAGGACTGGACTATGGGTTAGTGCTA: -0.526 z-score
TTAGGTTTCGGGACTGCGTTAGTGCTA: 3.19 z-score
TTAGATTTCGGACTGGATTAGTGCTAG: 1.06 z-score

A few entries again (set 4):
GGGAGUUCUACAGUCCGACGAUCCCCUGCGUCUUCAUUUCCGUGUGUGUGCAACUGCUCCGCUCCAAGAACUGCACCGCUGUCUUGUGAGCAUGGCGUGAACAGGCUGUUUUGCUCCAGCCACUUUUCUUGUAUGGAAUUCUCGGGUGCCAA: 1.18
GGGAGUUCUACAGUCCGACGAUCCCAGCUUAGUCAGAAGAUGGUUCCAUGGAAGAAAAAGGCCAAGGAGUUUGAAGAUUUUUCUUCUAGACAUCUCAAAAUGUGGUACUCAUACCAUCCACAUCAGAAUCCCUUGGAAUUCUCGGGUGCCAA: 0.518
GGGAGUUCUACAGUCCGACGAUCUGUCUACCUCUGACUUCUGUGGUCCCUCUGUGUCUGCUCUCAUCCAUUCCUCUUACUGGGGCCUGGGGCUCUAGCCCAAGGCUCAGAGGAGCCAAUAAACCUGUAAAUGAUGGAAUUCUCGGGUGCCAA: 0.371
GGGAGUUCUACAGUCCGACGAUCGCUGGAAGAGGCUCAGCGUUUGUGCUUGACUGCUGACCACCAGUGGUGCCAGAAGGCCUCAUCCUACAUCCUGCUCUCCUGGAUUGUUAAGACUAUAAAGUACUACUGUAUGGAAUUCUCGGGUGCCAA: 0.406
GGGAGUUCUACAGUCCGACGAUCACAUCAUUAAAGAUCUAAAUACAAAGGAUAUACAGUCUUGAAUCUAAAAUAAUUUGCUAACUAACUAUUUUGAUUCUUCAGAGAGAACUACUAAUAAAAAUCUAAAAGGUUGGAAUUCUCGGGUGCCAA: 0.416
